Measurements of several laboratories.
Protocols differ between the studies behind these lines. ± marks the error that the study gave.
Organism: Escherichia coli

`C/C(=N/NC(=N)N)c1nnn(-c2ccc(C#CC(C)(C)C)cc2)c1C` has an MIC of 32 µg/mL (broth microdilution; JW55031 tolC mutant).
`N=C(N)NCCC[C@H](NC(=O)[C@H](Cc1c[nH]c2ccccc12)NC(=O)[C@H](CCC(N)=O)NC(=O)[C@H](Cc1c[nH]c2ccccc12)NC(=O)[C@H](CCCNC(=N)N)NC(=O)[C@H](Cc1c[nH]c2ccccc12)NC(=O)[C@H](CCC(N)=O)NC(=O)[C@H](Cc1c[nH]c2ccccc12)NC(=O)[C@@H](N)CCCNC(=N)N)C(=O)NCCCC[C@H](NC(=O)[C@H](CCCNC(=N)N)NC(=O)[C@H](Cc1c[nH]c2ccccc12)NC(=O)[C@H](CCC(N)=O)NC(=O)[C@H](Cc1c[nH]c2ccccc12)NC(=O)[C@H](CCCNC(=N)N)NC(=O)[C@H](Cc1c[nH]c2ccccc12)NC(=O)[C@H](CCC(N)=O)NC(=O)[C@H](Cc1c[nH]c2ccccc12)NC(=O)[C@@H](N)CCCNC(=N)N)C(=O)NCCCCCC(N)=O` gave an MIC of 16 µM (broth microdilution; ATCC 25922; 24 h, 37 °C).
`CC[C@H](C)[C@H](NC(=O)[C@H](Cc1ccc(O)cc1)NC(=O)[C@@H](NC(=O)[C@@H]1C[C@@H](O)CN1C(=O)[C@H](CCCNC(=N)N)NC(=O)[C@H](CC(N)=O)NC(=O)[C@H](CC(N)=O)NC(=O)[C@H](CCCN)N=C(N(C)C)N(C)C)C(C)C)C(=O)N1C[C@H](O)C[C@H]1C(=O)N[C@@H](CCCNC(=N)N)C(=O)N1C[C@H](O)C[C@H]1C(=O)N[C@@H](CCCNC(=N)N)C(=O)N1C[C@H](O)C[C@H]1C(=O)N1C[C@H](O)C[C@H]1C(=O)N[C@@H](Cc1c[nH]cn1)C(=O)N1C[C@H](O)C[C@H]1C(=O)N[C@@H](CCCNC(=N)N)C(=O)N[C@@H](CC(C)C)C(=O)O` has an MIC of 10 µM (broth microdilution; BL21; overnight, 37 °C).
`CC(C)C[C@@H]1NC(=O)[C@H](C)NC(=O)[C@H](NC(=O)[C@H](CO)NC(=O)[C@@H](CCCCN)NC(=O)[C@@H](CC(C)C)NC(=O)[C@H](C)N)[C@H](C(N)=O)OC(=O)[C@H](CC(C)C)NC1=O` gave an MIC of greater than 32 µg/mL (ATCC 10798; TFA salt).
`CC[C@H](C)[C@H](NC(=O)[C@H](CO)NC(=O)[C@H](CO)NC(=O)[C@H](Cc1ccccc1)NC(=O)CN)C(=O)N[C@@H](Cc1ccccc1)C(=O)N[C@@H](CCCNC(=N)N)C(N)=O` gave an MIC of greater than 128 µM (ATCC 8739; added: 8 mM ZnCl2).
`CC[C@H](C)[C@H](NC(=O)[C@H](NC(=O)[C@@H](CCCNC(=N)N)NC(=O)[C@@H](N)COC(=O)[C@@H](NC(=O)[C@@H](Cc1ccccc1)NC)[C@@H](C)CC)[C@@H](C)CC)C(=O)N[C@@H](CO)C(=O)N[C@H]1C(=O)N[C@@H](C)C(=O)N[C@@H](C2CCCCC2)C(=O)N[C@@H]([C@@H](C)CC)C(=O)O[C@H]1C` gave an MIC of greater than 8 µg/mL (broth microdilution; ATCC 10798, Mueller-Hinton broth; 16 h, 37 °C).
`Cc1cc(N)c2cc(NC(=O)c3ccc4c(-c5cccc(O)c5)cccc4c3)ccc2n1` has an MIC of greater than 200 µM (hyperporinated ΔtolC).
`CC(C)C[C@H](NC(=O)[C@H](Cc1ccc(O)cc1)NC(=O)[C@@H]1CCCN1C(=O)[C@H](CCCNC(=N)N)NC(=O)[C@@H]1CCCN1C(=O)[C@H](CCCCN)NC(=O)[C@H](CC(=O)O)NC(=O)[C@@H]1CCCN1C(=O)[C@H](CCCNC(=N)N)NC(=O)C1(N)CCCCC1)C(=O)N1CCC[C@H]1C(=O)N[C@@H](CCCNC(=N)N)C(=O)N1CCC[C@H]1C(=O)N[C@@H](CCCNC(=N)N)C(=O)N1CCC[C@H]1C(=O)N1CCC[C@H]1C(=O)N[C@@H](CCCNC(=N)N)C(=O)N1CCC[C@H]1C(=O)N[C@H](C(=O)N[C@@H](CCCNC(=N)N)C(=O)N[C@@H](CSCC(N)=O)C(=O)NN)C(C)C` has an MIC of 2.5 ± 1.1 µg/mL (bacterial growth; ATCC 25922, 100% Mueller-Hinton broth; 90 min, 37 °C, strain ATCC 25922).
For `CC[C@H](C)[C@H](NC(=O)[C@@H](CCCNC(=N)N)NC(=O)[C@H](CCCNC(=N)N)NC(=O)[C@H](CCCN)NC(=O)[C@H](Cc1c[nH]c2ccccc12)NC(=O)[C@H](CCCNC(=N)N)NC(=O)[C@@H]1CCCN1C(=O)[C@H](CCCNC(=N)N)NC(=O)[C@@H]1CCCN1C(=O)[C@H](CC(C)C)NC(=O)[C@H](Cc1ccc(O)cc1)NC(=O)[C@@H]1CCCN1C(=O)[C@@H]1CCCN1C(=O)[C@H](CCCCN)NC(=O)[C@H](CC(=O)O)NC(=O)[C@@H](N)C(C)C)C(=O)N[C@@H](Cc1ccc(O)cc1)C(=O)N[C@@H](CC(N)=O)C(=O)N[C@H](CCCNC(=N)N)C(N)=O`, the MIC was 8 µg/mL (broth microdilution; BW25113; 18 h).
With `CCCCCCCCCCCCCCCC(=O)N[C@@H](CCCCN)C(=O)N[C@@H](CCCCN)C(=O)N[C@@H](CCCCN)C(=O)N[C@@H](CCCCN)C(N)=O` the MIC was 16 µg/mL (broth microdilution; K12, water pH 7; 18 h, 37 °C).
`CCCCCCCCCCCCCCCCCCSCC1OC(OC2C(N)CC(N)C(OC3OC(CN)C(O)CC3N)C2O)C(O)C(N)C1O` (centres unmarked) has an MIC of greater than 150 µg/mL (BL21(DE3) Eis-expressing).
For `CCCCCCCCC(CCCCCC)C(=O)N[C@@H](CCCCN)C(=O)N[C@@H](CCCCN)C(=O)N[C@@H](CCCCN)C(=O)N[C@@H](CCCCN)C(=O)N[C@@H](CCCCN)C(N)=O` (some centres unmarked), the MIC was 16 µg/mL (broth microdilution; K12; 16-24 h, 37 °C, prepared at pH 7).
`CC[C@H](C)[C@H](NC(=O)[C@H](CC(=O)O)NC(=O)[C@H](Cc1ccccc1)NC(=O)[C@H](CC(C)C)NC(=O)CN)C(=O)N[C@H](C(=O)N[C@@H](CCCCN)C(=O)N[C@@H](CCCCN)C(=O)N[C@H](C(=O)N[C@@H](CC(C)C)C(=O)N[C@@H](CCCCN)C(=O)N[C@@H](CC(C)C)C(=O)N[C@@H](CC(C)C)C(=O)N[C@@H](CCCCN)C(N)=O)C(C)C)C(C)C` has an MIC of greater than 20 µM (ATCC 25922, CAMHB; 18 h, 37 °C).
For `CC[C@H](C)[C@@H]1NC(=O)CNC(=O)[C@H](CCCCN)NC(=O)[C@H](C)NC(=O)[C@H](CCC(=O)O)NC(=O)[C@H](Cc2ccccc2)NC(=O)[C@H](CO)NC(=O)[C@H](CC(C)C)NC(=O)[C@H](C(C)C)NC(=O)[C@H](CC(=O)O)NC(=O)[C@@H](NC(=O)[C@@H](NC(=O)[C@@H](N)C(C)C)[C@@H](C)O)CSSC[C@@H]2NC(=O)[C@H](CO)NC(=O)CNC(=O)CNC(=O)[C@H](CCCCN)NC(=O)[C@H](CCCCN)NC(=O)[C@H](CCCNC(=N)N)NC(=O)[C@H](CC(C)C)NC(=O)[C@H](C)NC(=O)[C@H]([C@@H](C)CC)NC(=O)[C@H](CSSC[C@@H](C(=O)N[C@@H](CCCNC(=N)N)C(=O)N[C@@H](CC(N)=O)C(=O)O)NC(=O)[C@H](C(C)C)NC(=O)[C@H](C)NC(=O)[C@H](C(C)C)NC(=O)CNC(=O)[C@H](CC(N)=O)NC(=O)[C@H](CCC(N)=O)NC2=O)NC(=O)[C@H](Cc2c[nH]cn2)NC(=O)[C@H](CC(C)C)NC(=O)[C@H](C)NC(=O)[C@H](C)NC(=O)[C@H](C)NC(=O)[C@H](CO)NC(=O)[C@H](Cc2c[nH]cn2)NC(=O)[C@H](CC(N)=O)NC(=O)[C@H](C(C)C)NC(=O)[C@H](C)NC1=O`, the MIC was greater than 100 µM (broth microdilution; KCTC 1682; 16 h, 37 °C).
The MIC of `C=CCOC(=O)c1ccc(NC(=O)c2ccc(NC(=O)c3ccc(NC(=O)C(CC(N)=O)NC(=O)c4ccc(NC(=O)c5ccc([N+](=O)[O-])cc5)cc4)cc3)c(OC(C)C)c2OCC=C)cc1` (centres unmarked) is reported as greater than 64 µg/mL (K12 ΔtolC).
`Cc1cc(N)c2cc(NC(=O)c3ccc4c(-c5cccc(N)c5)cccc4c3)ccc2n1` gave an MIC of 50 µM (hyperporinated ΔtolC).
`CCCCCCCCCCCC[S+]([O-])CC1OC(OC2C(N)CC(N)C(OC3OC(CN)C(O)CC3N)C2O)C(O)C(N)C1O` (mixture of isomers) has an MIC of greater than 150 µg/mL (BL21(DE3) AAC(3)-IV).
The MIC of `CC(C)(C)c1ccc(COc2cc3c(=O)c(C(=O)NCCNCCO)cn(Cc4ccccc4)c3cc2Cl)cc1` is reported as less than 0.25 µg/mL (ATCC 25922; ≥80% growth inhibition).
For `CC[C@H](C)[C@H](NC(=O)[C@@H](NC(=O)[C@H](CCCCN)NC(=O)[C@H](CC(=O)O)NC(=O)[C@H](CCCCN)NC(=O)[C@H](Cc1ccccc1)NC(=O)[C@H](Cc1ccccc1)NC(=O)[C@H](CO)NC(=O)[C@H](CCCCN)NC(=O)[C@H](CCSC)NC(=O)[C@H](CCCCN)NC(=O)[C@H](CCCCN)NC(=O)[C@H](Cc1c[nH]c2ccccc12)NC(=O)[C@@H](N)Cc1ccccc1)C(C)C)C(=O)N1CCC[C@H]1C(=O)N[C@@H](CCCCN)C(=O)N[C@H](C(=O)N[C@@H](CCC(N)=O)C(=O)N[C@@H](CCC(N)=O)C(=O)N[C@@H](C)C(=O)N[C@@H](Cc1ccc(O)cc1)C(=O)N[C@@H](CO)C(=O)N[C@@H](CC(C)C)C(=O)N[C@@H](Cc1ccc(O)cc1)C(=O)N[C@@H](CC(N)=O)C(=O)N[C@@H](CCCCN)C(=O)N[C@@H](CC(C)C)C(=O)N[C@@H](CCC(N)=O)C(=O)N[C@@H](Cc1c[nH]cn1)C(=O)N[C@@H](CCCCN)C(=O)N[C@@H](CC(C)C)C(N)=O)C(C)C`, the MIC was 1.56 µM (broth microdilution; ATCC 35218).
For `Cc1cccc(C)c1SCC1OC(OC2C(N)CC(N)C(OC3OC(CN)C(O)CC3N)C2O)C(O)C(N)C1O` (centres unmarked), the MIC was 18.8 µg/mL (MC1061).

Repeated from above:
`Cc1cc(N)c2cc(NC(=O)c3ccc4c(-c5cccc(N)c5)cccc4c3)ccc2n1` gave an MIC of 50 µM (hyperporinated ΔtolC).
`CCCCCCCCCCCC[S+]([O-])CC1OC(OC2C(N)CC(N)C(OC3OC(CN)C(O)CC3N)C2O)C(O)C(N)C1O` (mixture of isomers) has an MIC of greater than 150 µg/mL (BL21(DE3) AAC(3)-IV).
The MIC of `CC(C)(C)c1ccc(COc2cc3c(=O)c(C(=O)NCCNCCO)cn(Cc4ccccc4)c3cc2Cl)cc1` is reported as less than 0.25 µg/mL (ATCC 25922; ≥80% growth inhibition).
